Published values from different studies.
Lines come from different studies, so protocols differ. Values joined by “and” are separate records of one study, mostly repeats; a detail may differ. ± gives the spread as reported.

SMILES	tested on	assay	system	conditions	how to read	endpoint	result
O=C1NC2(CC2)COc2ncc(F)cc2[C@H]2COCCN2c2ccn3ncc1c3n2	–	–	Sprague-Dawley rat, female, uterus	oral, 2.5 mg/kg/day, 4 weeks dosing, end of recovery	–	organ-to-brain weight ratio	31.5 ± 11.9%
CC1(C)CC(=O)C2=C(C1)Oc1ccccc1C2C1C(=O)NC(=O)NC1=O (stereo not shown)	3T3-L1 preadipocytes	adipogenesis, Oil Red O staining	–	IC20, 14 days, single replicate	–	lipid content	0.785 OD492 and 0.821 OD492 and 0.874 OD492
CN(C)CCN1CCN(c2ccc3nc(-c4ccc5nc(-c6ccc(C(F)(F)F)cc6)[nH]c5c4)[nH]c3c2)CC1	HL-60(TB)	cell growth	–	10 µM, 48 h	–	growth percent	59.6%
CN1C(=O)C(C2C3=C(CC(C)(C)CC3=O)Oc3ccc(Cl)cc32)C(=O)N(C)C1=O (stereo not shown)	3T3-L1 preadipocytes	adipogenesis, Oil Red O staining	–	IC20, 14 days	–	mean lipid content	0.687 OD492
O=C(Nc1nnc2c1c(-c1ccc(Cl)cc1)nc1sc(=Cc3ccco3)c(=O)n12)c1ccccc1 (mixture of isomers)	HL-60(TB)	–	–	10 µM	–	growth percent	31.9%
CN1C(=O)C(C2C3=C(CCCC3=O)Oc3ccc(Br)cc32)C(=O)N(C)C1=O (stereo not shown)	3T3-L1 preadipocytes	adipogenesis, Oil Red O staining	–	IC20, 14 days, single replicate	–	lipid content	0.978 OD492 and 0.976 OD492 and 0.972 OD492
C1=[N+]2CCCC[N+]3=Cc4ccc5[n]4[Au-]23[n]2c1ccc2-c1nc2ccccc2nc1-5.F[P-](F)(F)(F)(F)F	HL-60(TB)	NCI60 five-dose screen	–	–	–	TGI	4.08 -log M
CC(C)(C)C(=O)OCOP(=O)(OCOC(=O)C(C)(C)C)C1CCCN(O)C1=O (stereo not shown)	HL-60(TB)	–	–	–	–	Log10TGI	-5.45 log M
COc1ccccc1-c1n[nH]c2nc(NC3CCN(C(=O)Cc4ccc(F)cc4F)CC3)ncc12	–	bead binding, competition bead pull-down, measured: LINJ.30.3480	Leishmania donovani axenic amastigote extract	10 µM	reference: vehicle	relative abundance	0.99
Cc1cc(C(=O)Nc2nc3cccc(C)c3n2[C@H]2CCCCN(C(=O)/C=C/CN(C)C)C2)ccn1	Trypanosoma brucei	propidium iodide flow cytometry, measured: SubG0 phase	bloodstream CLK1 over-expression uninduced	concentration not given	–	cell cycle distribution	8.2% and 7.2% and 5.75%
COc1ccccc1-c1n[nH]c2nc(N[C@H]3CC[C@H](NS(=O)(=O)CC(C)C)CC3)ncc12	–	bead binding, competition bead pull-down, measured: LINJ.21.1320	Leishmania donovani extract	10 µM	reference: vehicle	relative abundance	0.85
CCCC(CCC)C(=O)OCc1cn(-c2cc3ccccc3oc2=O)nn1	HL-60(TB)	NCI60 single dose	–	10 µM	–	growth	95.8%
C=C1C[C@@H]2[C@H](CC[C@]3(C)C(=O)CC[C@@H]23)[C@@]2(C)C=CC(=O)C=C12	HEK293-A GFP-LC3B	LC3B puncta formation	–	22 h, with: chloroquine, torin1	–	IC50	> 20 µM

For quick reference, copied from above:
SMILES	tested on	assay	system	conditions	how to read	endpoint	result
O=C(Nc1nnc2c1c(-c1ccc(Cl)cc1)nc1sc(=Cc3ccco3)c(=O)n12)c1ccccc1 (mixture of isomers)	HL-60(TB)	–	–	10 µM	–	growth percent	31.9%
